Measured values of several laboratories.
Values joined by “and” are separate records of one study, mostly repeats; a detail may differ. Numbers after ± are the reported error.

CCCCCCCCCCCCCCCCCCOc1ccccc1CC(=O)OCC[N+]1(C)CCCC1 — mean growth inhibition (NSCLC panel (nine cell lines); 10 µM): 68.1%
Cn1cc(-n2cnc3c(NCc4nc5cc(Cl)c(Cl)cc5[nH]4)nc(N4CCOCC4)nc32)cn1 — mRNA level (MDA-MB-231; qRT-PCR, item: ATR; 50 nM, 6 h, unit not given; reference: untreated): 0.681
COc1cc(/C=C/C(=O)N2CCC=CC2=O)cc(OC)c1OC — mRNA level (MDA-MB-468; quantitative RT-PCR, item: GLUT1; 30 µM, 8 h; reference: untreated cells): 75.6 ± 5.9%
CSCC[C@H](NC(=O)[C@H](Cc1ccc(OS(=O)(=O)O)cc1)NC(=O)[C@@H](N)CC(=O)O)C(=O)NCC(=O)N[C@@H](Cc1c[nH]c2ccccc12)C(=O)N[C@@H](CCSC)C(=O)N[C@@H](CC(=O)O)C(=O)N[C@@H](Cc1ccccc1)C(N)=O — calcium response (HEK293T control virus; agonist, calcium mobilization; 0.00512 nM, no receptor expressed; higher = more calcium release): 0.0927 a.u. and 0.0248 a.u.
C=CCn1c(=O)c2cnc(Nc3ccc(N4CCN(C)CC4)cc3)nc2n1-c1ccc2c(n1)[C@@](O)(CC)CC2 — EdU-negative S phase cells (MDA-MB-231; flow cytometry; concentration not given): 25.4%
CNC(=O)Nc1ccc(-c2nc(N3CC4CCC(C3)O4)c3cnn(C4CCC5(CC4)OCCO5)c3n2)cc1 — cell growth (SNU-1040; 330 nM, 3 days, 100% DMSO; reference: vehicle): 75.5%
COc1c(C)c(OC(=O)c2ccc(C)cc2)c(C)c(O)c1C(=O)/C=C/c1ccccc1 — selectivity index (KKU-M213; SRB; reference: normal over KKU-M213 IC50): 0.88
C[C@H]1[C@@H](O)O[C@@H]2O[C@@]3(C)CC[C@H]4[C@H](C)CC[C@@H]1[C@@]24OO3 — viable cells (THP-1; annexin V/PI flow cytometry, item: annexin V-/PI-; 0.2 µM, 24 h): 96.2%
CCCCc1nc(Cl)c(CO)n1Cc1ccc(-c2ccccc2-c2nn[nH]n2)cc1 — log2 fold change (human PBMC; RNA-seq, item: LRP3 mRNA; 10 µg/mL, 24 h; reference: untreated control): -1.71
Nc1ncnc2nc(-c3ccc(N4CCOCC4)nc3)cc(-c3cccc(Br)c3)c12 — T cell proliferation (activated human T cells; human; 1 nM): 1.5% and 0.326% and 0.2%
O=c1[nH]nc(OCCCc2ccc(Cl)cc2)c(NCc2cccnc2)c1Br — normalized enrichment score (HEK-293T; RNA-seq GSEA, item: HALLMARK_DNA_REPAIR; concentration not given; direction not given): -0.929
CC/C(=N\NC(=O)NCc1cccc(O)c1)c1ccc(O)c(C)c1O — relative cell number (SK-OV-3; ATP; 1 µM, 4 days, 3D U-bottom low-attachment; reference: untreated): 115%
Cc1nn(-c2nc3c(F)cc(F)cc3s2)c(O)c1C(c1ccc(C(F)(F)F)cc1)c1c(C)nn(-c2nc3c(F)cc(F)cc3s2)c1O — inhibition (THP1-Dual; IFN luciferase reporter; 40 µM, together with: HT-DNA): 101%
CC[C@@H](C)[C@H]1NC(=O)[C@H](Cc2ccc(-c3ccccc3)cc2)NC(=O)[C@H](CC(C)C)NC(=O)[C@@H]2[C@@H](c3ccccc3)CCN2C(=O)[C@H](NC(=O)[C@@H](CCCNC(=N)N)NC(=O)[C@@H](CCCNC(=N)N)NC(C)=O)CSCSC[C@@H](C(=O)N[C@H](CCCNC(=N)N)C(=O)N[C@H](CCCNC(=N)N)C(N)=O)NC(=O)[C@H](C(C)C)NC(=O)[C@@H]2CCCN2C(=O)[C@H](CC(=O)O)NC(=O)[C@H](Cc2ccc(O)cc2)NC(=O)[C@@](C)(CO)NC1=O — IC50 (AsPC-1; AlphaScreen, item: pERK; 2 h): > 50 µM
O=C(/C=C/C=C/C=C/C1CCCCC1)NC1=C[C@@](O)(/C=C/C=C/C=C/C(=O)NC2=C(O)CCC2=O)[C@@H]2O[C@@H]2C1=O — GI50 (LS180; cell growth, CellTiter-Glo; 78 h): 29.2 µM
CC(C)(c1ccc(O)cc1)c1ccc(O)cc1 — S phase cells (HepG2 spheroids; Hoechst flow cytometry; 40 µM, 24 h): 8.86 ± 2.2%
[Cl-].[Cl-].[Os+2].c1cnc2c(c1)ccc1cccnc12.c1cnc2c(c1)ccc1cccnc12.c1cnc2c(c1)ccc1cccnc12 — phototherapeutic index (SK-MEL-28; cell viability, resazurin; dark, 1% O2 hypoxia; reference: dark EC50 over visible EC50): 1
CC(=O)N[C@@H](CCCCN)C(=O)N[C@@H](CCCNC(=N)N)C(=O)N[C@H](C(=O)N[C@@H](Cc1c[nH]cn1)C(=O)N[C@@H](Cc1ccccc1)C(N)=O)C(C)C — responder cells (HeLa cells; calcium release, Fluo-4 imaging; 100 µM): 0%
C=CC(=O)N1[C@@H](c2ccc3c(c2)OCO3)c2[nH]c3ccccc3c2C[C@H]1C(=O)NC — mean neuron degeneration (rat DRG neurons; 30 µM, 48 h, together with: vincristine 40 nM): 17.1%
CC1(C)CCC(CN2CCN(c3ccc(C(=O)NS(=O)(=O)c4ccc(NCC5CCOCC5)c([N+](=O)[O-])c4)c(Oc4cnc5[nH]ccc5c4)c3)CC2)=C(c2ccc(Cl)cc2)C1 — early apoptotic cells (KCL-22; annexin V/PI flow cytometry, item: annexin V+/PI-; 3.2 µM, 24 h): 13.8%
CCCCCCCCCCCCCCCCCCOc1ccc(CC(=O)OCC[N+]2(C)CCOCC2)cc1 — mean growth inhibition (NSCLC panel (nine cell lines); 10 µM): 3.79%
CCn1cc(-c2cc(Cn3ccoc3=N)cc3c2CCN([C@@H](C)c2cc(OC)ccn2)C3=O)c(C(F)(F)F)n1 — EC50 (HMC18; cell growth; 120 h): 10.4 µM
COc1cc2ncn(-c3cc(OCc4ccccc4C(F)(F)F)c(C(N)=O)s3)c2cc1OC — cell growth (SNU-1040; 330 nM, 3 days, 100% DMSO; reference: vehicle): 112%
O=C(C[C@@H](C(F)F)n1ccc(F)n1)N1CCC(O)(Cn2cnc3c(cnn3-c3ccc(F)cc3)c2=O)CC1 — resistance factor (CAPAN-1 resistant to USP7-797; SRB viability; reference: IC50 resistant over parental): > 376
C[C@]12CCCN1CC1=NNC(=O)c3cc(F)cc4[nH]c2c1c34 — EC50 (AZ-521 gastric cancer cells; cell viability; concentration not given, together with: with temozolomide): 1 µM
Cc1cc(Nc2ncc(Cl)c(Nc3ccccc3S(=O)(=O)C(C)C)n2)c(OC(C)C)cc1C1CCNCC1 — log2 fold change (CLB-BAR; phosphoproteomics LC-MS/MS, item: RECQL4 phosphorylation; 200 nM, 60 min; reference: untreated): -2.13
C=CC1=C(C)c2cc3[n-]c(cc4nc(cc5[n-]c(cc1n2)c(C)c5C=C)C(C)=C4CCC(=O)O)c(CCC(=O)O)c3C.[Zn+2] — fold change (SH-SY5Y; RNA-seq, item: FAM30A mRNA; 5 µM, 5 h; reference: untreated cells): 2.6
Nc1ncnc2c1ncn2[C@@H]1O[C@H](CO)[C@@H](O)[C@H]1O — IFNγ production (activated human T cells; 31.6 µM; higher = more IFNγ): 240 a.u. and 180 a.u. and 157 a.u.
CCCCCC(=O)Oc1c(C)c(O)c(C(=O)/C=C/c2ccccc2)c(OC)c1C — selectivity index (KKU-M213; SRB; reference: normal over KKU-M213 IC50): 1.11
Cn1cc(Nc2nccc(-c3ccc4c(c3)CN(C3COC3)CC[C@H]4NC(=O)c3cn(C(C)(C)C)nn3)n2)cn1 — number of downregulated genes (human B cells; 100 nM, 64 h, non-stimulation-regulated genes, together with: CpG ODN2006): 531
CCCCN1C[C@H](O)[C@@H](O)[C@H](O)[C@H]1CO — IC50 (Sandhoff disease patient fibroblasts; glycosphingolipid lowering, LC-MS/MS, item: GM3 d18:1/22:0; human): 6.95 µM
Cn1cc(-c2ccc(-c3cncc(Cl)c3N3CCC4(CCNC4=O)CC3)cc2)cn1 — log2 fold change (COLO 205; gene expression, microarray, item: KLF10 mRNA; concentration not given, 2 h; reference: untreated cells): 2.12
Cc1cnc2ccc3c(c2n1)N1CCC(O)N=C1N3C (stereo not drawn) — plating efficiency (BALB/c 3T3; colony formation; 100 µM): 0%
Nc1cccc2c1C(=O)N(C1CCC(=O)NC1=O)C2=O (stereo not drawn) — viability (MM1.S resistant to compound; XTT; 0.2 µM): 103% and 100% and 81%
OCCCNc1cc(-c2ccnc(Nc3cccc(Cl)c3)n2)ccn1 — cell growth (SNU-1040; 330 nM, 3 days, 100% DMSO; reference: vehicle): 47%
CCn1cc(-c2cc(Cn3ccnc3)cc3c2CCN([C@H](c2cc(OC)ccn2)C2CC2)C3=O)c(C(F)(F)F)n1 — EC50 (KLE; cell growth, inhibitor; 120 h): 10 µM
COc1ccc(C#N)cc1-c1c[nH]c2ncc(-c3cncc(C(=O)N(C)C)c3)cc12 — GI50 (Ba/F3 BCR-ABL wild type; cell proliferation; 72 h): 0.59 ± 0.0366 µM
O=c1ccn([C@@H]2O[C@H](CO)[C@@H](O)[C@H]2O)c(=O)[nH]1 — T cell proliferation (activated human T cells; human; 100 nM): 29.5% and 16.9% and 15.6% and 37.5% and 31.8%
c1ccc2[nH]ccc2c1 — mRNA level, LS mean (HCT-8; RNA-seq, item: ZNF763; concentration not given): 3.09 counts per million
COc1ccc(C(=O)C2CCN(CC(=O)N(Cc3nc4c(c(=O)[nH]3)COCC4)CC3CC3)CC2)cc1 — inhibition (HEK293 STF; β-catenin stabilisation, immunoblot; 2 µM, together with: Wnt3a conditioned medium): inhibited
CC(=O)c1nn(-c2ccc(Cl)cc2)/c(=N/N=C(\C)c2ccc(NC(=O)c3ccc(C)cc3)cc2)s1 — viability (MCF7; 1.25 µM): 17.9%
CCc1cnc(N2CCC(c3nc(COc4ccc(-n5cnnn5)cc4)cs3)CC2)nc1 — normalized enrichment score (HEK-293T; RNA-seq GSEA, item: Hallmark bile acid metabolism; concentration not given; direction not given): 1.09
CC(C)NCC(O)c1ccc(O)c(O)c1 (stereo not drawn) — sarcomere length (mouse ventricular cardiomyocytes; dose not given, 0.299 s): 1.8 µm
Cc1cccc(-c2[nH]c(CNc3ccccc3F)nc2-c2ccc3ncnn3c2)n1 — viability (MM1.S pomalidomide-resistant; XTT; 0.25 µM): 101% and 97% and 96%
COc1cnc2cccc(N3CCc4c(cc(Cn5ccnc5C)cc4-c4cn(C)nc4C(F)(F)F)C3=O)c2c1 — EC50 (CAL-27; cell growth, inhibitor; 120 h): 9.68 µM

Excerpt of the above:
CCCCCCCCCCCCCCCCCCOc1ccccc1CC(=O)OCC[N+]1(C)CCCC1 — mean growth inhibition (NSCLC panel (nine cell lines); 10 µM): 68.1%
Cn1cc(-n2cnc3c(NCc4nc5cc(Cl)c(Cl)cc5[nH]4)nc(N4CCOCC4)nc32)cn1 — mRNA level (MDA-MB-231; qRT-PCR, item: ATR; 50 nM, 6 h, unit not given; reference: untreated): 0.681
COc1cc(/C=C/C(=O)N2CCC=CC2=O)cc(OC)c1OC — mRNA level (MDA-MB-468; quantitative RT-PCR, item: GLUT1; 30 µM, 8 h; reference: untreated cells): 75.6 ± 5.9%
CSCC[C@H](NC(=O)[C@H](Cc1ccc(OS(=O)(=O)O)cc1)NC(=O)[C@@H](N)CC(=O)O)C(=O)NCC(=O)N[C@@H](Cc1c[nH]c2ccccc12)C(=O)N[C@@H](CCSC)C(=O)N[C@@H](CC(=O)O)C(=O)N[C@@H](Cc1ccccc1)C(N)=O — calcium response (HEK293T control virus; agonist, calcium mobilization; 0.00512 nM, no receptor expressed; higher = more calcium release): 0.0927 a.u. and 0.0248 a.u.
C=CCn1c(=O)c2cnc(Nc3ccc(N4CCN(C)CC4)cc3)nc2n1-c1ccc2c(n1)[C@@](O)(CC)CC2 — EdU-negative S phase cells (MDA-MB-231; flow cytometry; concentration not given): 25.4%
